Measurements pooled from the literature.
A part holds a random share of what one study measured.
Chain of UniProt Q9C0B0 (30-357, looked up): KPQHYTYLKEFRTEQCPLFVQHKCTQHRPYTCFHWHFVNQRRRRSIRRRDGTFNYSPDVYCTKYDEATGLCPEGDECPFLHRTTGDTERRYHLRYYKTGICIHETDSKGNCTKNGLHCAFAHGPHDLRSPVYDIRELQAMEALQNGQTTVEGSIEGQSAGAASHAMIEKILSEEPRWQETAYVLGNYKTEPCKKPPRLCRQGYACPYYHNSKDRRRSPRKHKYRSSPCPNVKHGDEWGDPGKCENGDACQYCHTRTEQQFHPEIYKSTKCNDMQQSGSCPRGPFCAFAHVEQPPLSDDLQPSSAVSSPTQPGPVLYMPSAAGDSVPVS

Study 1
Target: Sal-like protein 4, full length isoform B (SALL4, Homo sapiens, UniProt Q9UJQ4-2, residues 1-616)
Technique: universal PBM
Form: double-stranded DNA, one strand shown
Matrix: in vitro
Tested at: not given
Notes: 8-mer, flanks averaged, mean of replicates
Direction: higher = stronger binding
Oligonucleotide	E-score
AGAGTGCT	-0.0348
ACGTTACC	-0.0559
AAAGGTCT	-0.00774
CTTAAAAG	0.106
TCGATCCA	-0.0718
ACGGTTTA	-0.0412
CTTAATCA	0.208
TACCTTGA	0.0898
CTGGACAG	-0.205
CGAAGTCC	-0.155
CCTCCCTA	-0.24
ATCAAGCC	-0.0861
GGGGTACA	-0.163
ATTCTGCA	0.144
AAACATGC	0.0283
GTTGCTGA	0.0254
AGTTTGGG	0.0787
AGGTTGGC	-0.0981
CACCGACC	-0.242
GAACCCCA	-0.28
GTGTCGCA	-0.101
CGGGGGGC	-0.272
CGAAACAG	-0.146
AAAACTAC	0.128
ATCTGATC	0.0492

Study 2
Target: Histone acetyltransferase KAT6A, winged helix 2, GST fusion (KAT6A, Homo sapiens, UniProt Q92794, residues 85-181)
Technique: protein binding microarray
Form: double-stranded DNA, one strand shown
Matrix: in vitro
Tested at: not given
Notes: 8-mer, flanks averaged, mean of 2 arrays, mostly near background
Reference: not given
Direction: higher = stronger binding
Construct (chain): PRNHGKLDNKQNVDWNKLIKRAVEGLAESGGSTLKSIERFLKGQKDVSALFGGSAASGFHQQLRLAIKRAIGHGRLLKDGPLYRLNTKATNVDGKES
Oligonucleotide	E-score
ACTGTTCA	-0.0937
ATACGCTA	-0.194
GAACTCGC	0.218
TAAGGGTA	-0.139
ATACGCAA	0.00564
CCTCCTCA	-0.00107
ACGACCAG	-0.00587
CGCGAAAA	0.124
AGTGGAGC	0.0555
AAGCGCAG	0.218
CTACATGA	-0.0185
ATCAAGTC	-0.132
GTAAATGA	-0.0692
CAATCAAG	0.105
GGAACTGA	-0.0819
ATCAAAAC	0.151
AATCTGGG	0.0489

Study 3
Target: Ras GTPase-activating protein-binding protein 1, full length (G3BP1, Homo sapiens, UniProt Q13283)
Chain of UniProt Q13283 (whole entry, looked up): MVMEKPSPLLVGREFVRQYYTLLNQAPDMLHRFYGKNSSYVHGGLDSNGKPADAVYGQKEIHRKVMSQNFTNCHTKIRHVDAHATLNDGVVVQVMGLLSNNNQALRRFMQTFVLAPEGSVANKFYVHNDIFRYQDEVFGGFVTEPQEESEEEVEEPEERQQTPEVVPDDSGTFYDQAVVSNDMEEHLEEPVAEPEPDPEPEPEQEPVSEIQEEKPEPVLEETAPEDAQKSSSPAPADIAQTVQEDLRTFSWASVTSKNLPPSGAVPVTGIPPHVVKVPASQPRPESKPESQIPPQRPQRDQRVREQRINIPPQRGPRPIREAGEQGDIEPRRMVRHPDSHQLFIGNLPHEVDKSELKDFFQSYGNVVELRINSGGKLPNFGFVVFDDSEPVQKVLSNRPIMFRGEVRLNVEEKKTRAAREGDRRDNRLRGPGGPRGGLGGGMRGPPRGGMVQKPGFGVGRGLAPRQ
Technique: RNA Bind-n-Seq
Form: RNA
Matrix: in vitro
Tested at: 200 nM
Notes: whole 134-nt RNA, ends assumed
Together with: 150 mM KCl
Reference: input library
Direction: higher = stronger binding
All sequences stand within: GGGAGUUCUACAGUCCGACGAUC … UGGAAUUCUCGGGUGUCAAGG
Oligonucleotide	log2 enrichment
UCCUGUGCUACACAUCGUAUGUACCGAAUCGGGAAAAAAAGGGAAAGGGUUUUUUUGGGAAAGUAUUAUGUUACGCCGUUCGGAUCUGCA	-0.368
UCAAGUCCUGUGCUACACAUCGUAUGUACCGAAUCGGGGUUGGUUGGGGUUGGGGAAAGUAUUAUGUUACGCCGUUCGGAUCUGCACUUC	0.412
UAACUUUAGAGGAGGAUCUGAUGGAUCUGGCAGUGGACGUGGAUUUGGGGAUGGCUAUAAUGGGUAUGGAGGAGGACCUGGAGGUGGCAA	0.483
UUCAUUCCUUGGAAGAAGCUGUACCAUCGAUACCUGAUGAAUGAAGAGCAAGCUGUCAGCAAAGUGGACGGCAUCCUGUCUAACUGUGGC	-2.18
UGGCCCUGGUGGCAUGCGGGGAGGAAGAGGUGGCCUCAUGGAUCGUGGUGGUCCCGGUGGAAUGUUCAGUGGUGGCCGUGGUGGAGACAG	0.297
GCAGGAAGUAAAAACAAAUGGAAAUGCUUCGGAUAGUGGCAGGGGUAGGGGUUGCUAAGGAAAGGGUGGGAUGGGAGUGGGUAAAGAGUU	0.887
UAACUUUAGAGGAGGAUCUGAUGGAUAUAGCAGUGGACGUGGAUUUGGGGAUGGCUAUAAUGGGUAUGGAGGAGGACCUGGAGGUGGCAA	0.479
AGUCCUGUGCUACACAUCGUAUGUACCGAAUCGGGGUUUGGGGAGGGGUUUUUGGGGAAAGUAUUAUGUUACGCCGUUCGGAUCUGCACU	0.234
CACAGACAACACGCACCCACACAGACACAAAAGGAAGGGGUUGGGAUGGGGACAGGGUGCACAGCAGGGCGGGGUAGGACCCCAGCCCCU	1.76
CCUCAAGUCCUGUGCUACACAUCGUAUGUACCGAAUCGGUGGGUGGGUGGGGAAAGUAUUAUGUUACGCCGUUCGGAUCUGCACUUCCAG	1.24
CAAGUCCUGUGCUACACAUCGUAUGUACCGAAUCGGGGUUGGGGUUGGGUUGGGGAAAGUAUUAUGUUACGCCGUUCGGAUCUGCACUUC	1.04
GCAGGAAGUAAAAACAAAUGGAAAUGCUUCGGAUAGUGGCAGGGGUGGGGGUAGCUAAGGAAAGGGUGGGAUGGGAGUGGGUAAAGAGUU	1.03
GUCCUGUGCUACACAUCGUAUGUACCGAAUCGGGAAAAAGGGAAAAAGGGUUUUUGGGAAAGUAUUAUGUUACGCCGUUCGGAUCUGCAC	-0.526
ACCAUGCAGGUGGGCAUCUUUGGGAAGUGGGGCAAGGGGGGGAUAAAAAGGGGGGUAACACUUUGGGAACAGGUGGUCCCAGGUCGUUUC	0.585

Study 4
Target: RNA binding protein fox-1 homolog 2, RRM domain, GST-SBP tag (RBFOX2, Homo sapiens, UniProt O43251-10, residues 100-194)
Technique: RNA Bind-n-Seq
Form: RNA
Matrix: in vitro
Tested at: 365 nM
Notes: natural RNA segment, single round, ends assumed
Reference: no-protein control
Direction: higher = stronger binding
All sequences stand within: GGGAGUUCUACAGUCCGACGAUC … UGGAAUUCUCGGGUGCCAA
Target sequence (chain): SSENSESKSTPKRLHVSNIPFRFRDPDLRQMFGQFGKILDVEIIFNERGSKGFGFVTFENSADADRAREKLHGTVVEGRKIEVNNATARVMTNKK
Oligonucleotide	RBNS enrichment (R)
AUUCCUUGCGGAAUUCUGUGGGAGAAAAGAUCCUAUCCCUUCGCAGUUGCUCCGUGGGCUCUCUAGGGGCUCUGGGCUCUGCCUGCUGCAGUGUCCUCAGUGAGCUCUCU	0.278
AAAUGAUCCACACUUUCACACUGCCACUUCUGACCUUCACUGCCAUCUUCAGACGGUUCCUUUUGAUCAGCCCCUGGAAGAUGGGUCCCUCCUAAUCUAUGUCAUAGAAU	0.321
UUUAUUUUUUUUCUGUAACUGUGCUUGUUGAAUGUCAAUCAUAUUUAAAGGGAAUGACUUUGAAGUAAAACCUUUUUUCUUGCUACUGAAAAAAAUGGAGUUGUUUUGGG	2.35
CAGGCUCUCCUGAGCAGGACUGCUAAAGAGCUUGCCUCCUCAAAGCCUGGUCUCUGAGGUGCUUUCUAACAGCUGGAGGCACUUGUUCUGGGCUUUCCUUUGCCCUCAGU	0.271
AAUCCUCAAAAGAACAAAAUGCUUAACUUUAUCUCUUAAUUUCUAAAGGUAAAUAACCUAGGUUCAGCUUUUGCUUAAACAUUAAAUAUCUUUUCCAUUUUUUAAUGUUU	0.882
GAUUUUUGAGUCGUUAUCAAGCUAAGUGGCAAGCGGGAAGCUGAAACUCGUAUAGGUGAACAUUCUUGGAGGCUUAUCUCUUCCCUGGCCAGAUGCCUGAUCAGAUGAGA	0.279
GGCUCUCUGAGGGCAACCAGGCCUUGUGUCCUGGUACCUGUGACACUGUUGUGGUCACAGCAGUGCCCUUGGACAGGGCAUUAAGGCUGACCCUGAAGGAGUGGUGCUGC	0.318
GCAGAAGCAUAGAUUUAAUUGCAUCUUUAUUUUGAAAAACAAAUGAAAAUUGAUGGGGUUUAAAGCUACAGAGGCACUGACCUUUUUCUAGUUAUUGUAUUGCUACAAUU	0.657
AACAUGCCUUCAGUAUACUAACACUCAUAUGCUCAGUUUUGUUUUGUUUUGGCAGUUGACAAGAAGUUAAUUUGCUUUAGUAAAAAUCCCUCAUUCCAGCCUUUCUAUAU	0.632
GUACUGUAACAGUAAUUUAUAGUAAUGUUUUAAAAUCAACUUUUUAUUGCCUUCUCACCAGCUGCAAAGUGUUUUGUACCAGUGAGUUUUUGCAAUAAUGCAGUAUGGUA	0.479
UACGCUUGGGGGCUGGGAUGCCGUGUACACACGCACAAGUACACAUCGCGCUCAGGACUUCACUGAAGAUUCACGUGCAAUUGAACGCUUCAUUAAACAAAAGAAAACCU	0.399
AGAGGCAGGUCCCCCAGGCUGGGAUGCUGGCCCCUAGACUAGGGUGCUGACCCCUGGGCUGGGGUGCUGUGUGCUACCUCCCACUGUGAAAUCGCUGGUGCUCACAAUUG	0.543

Study 5
Target: Interferon regulatory factor 5, full length, phosphomimetic (IRF5, Homo sapiens, UniProt Q13568-2, residues 1-514, S451D/S453D/S456D/S462D)
Technique: protein-binding microarray
Form: double-stranded DNA, one strand shown
Matrix: in vitro
Tested at: 940 nM top
Notes: 60-bp whole probe
Together with: salmon DNA 0.4 mg/ml
Reference: random background probes
Direction: higher = stronger binding
All sequences stand within: GCCTAGCAC … GTCTTGATTCGCTTGACGCTGCTG
Oligonucleotide	fitted relative affinity [z-score]
TCAACTCTGTTTTCGCTTACTGTGCTA	1.31
TTAGATTTCTGTTCCGATTAGTGCTAG	1.56
GACAGTTTCCTACTGCTGACGTGCTAG	1.43
GTGAATATATGTATATATGTGTGCTAG	-0.238
GACGGTTTCGGGTCCGGGACGTGCTAG	9.55
GACGCTATCGGTATCGGGACGTGCTAG	1.94
TCATATATACCTGTATAACTGTGCTAG	0.0736
TCACATGTGCCTTTATAACTGTGCTAG	0.352
GACGATATCAGTATGGAGACGTGCTAG	-0.123
TTAGGTTTCCTTTCCCTATAGTGCTAG	2.55
TTAGGTTTCCTTTCGCTTTAGTGCTAG	3.14
TTAGATCTCAGTCTCAATTAGTGCTAG	1.09
GACGAAATGAGTATCGAGACGTGCTAG	1.82
GACGGTATCGACATTGGGGACGTGCTA	3.74
TCAGCTTTAGTCATTCACACTGTGCTA	-0.076
TTAGTTATCGGTATCGGTTAGTGCTAG	5.72
TCATTCATGAAATTTTAAACTGTGCTA	0.243
GATGATATCGGGTATCGAGACGTGCTA	1.28
TTAGATCTCAGTATCGGTTAGTGCTAG	5.01
GACGATATCAGTTTCGAGAAGTGCTAG	3.36
AAAATGATTTTTTTCATATAGTGCTAG	0.403
TTAGGTTTCGATTTTCGGTTAGTGCTA	11.6
ACTGTGTTTTGGATGTCAGAGTGCTAG	0.141

Further values, each from its own experiment
Oligonucleotide	target	test	test system	conditions	scale	endpoint	value
GGGAGUUCUACAGUCCGACGAUCAAAUUUAUUUCAUGCCCUGGACUCCCUAUCGUACCGAUACUUUAACCGAAUAUGCUUCUUCCGAAGAUUUCCAAAACCGUCGCCAAACAACAACAUAUAAACUUCCAAAUCGAGCCGAUGCAACAGAGGAUUGAGCAUCA	RING finger protein unkempt homolog, zinc fingers 1-6, SBP tag (UNK, Homo sapiens, UniProt Q9C0B0, residues 30-357)	RNA Bind-n-Seq	RNA, in vitro	100 nM, RNA with constant flanks, ends assumed	reference: input RNA pool, higher = stronger binding	bound/input enrichment	0.836 ratio

Excerpt of the above (study 5):
Oligonucleotide	fitted relative affinity [z-score]
GACGGTTTCGGGTCCGGGACGTGCTAG	9.55
TTAGATCTCAGTCTCAATTAGTGCTAG	1.09
TTAGGTTTCCTTTCCCTATAGTGCTAG	2.55
GACGATATCAGTATGGAGACGTGCTAG	-0.123
GACGCTATCGGTATCGGGACGTGCTAG	1.94
TTAGGTTTCCTTTCGCTTTAGTGCTAG	3.14
GACGAAATGAGTATCGAGACGTGCTAG	1.82
GATGATATCGGGTATCGAGACGTGCTA	1.28
TCACATGTGCCTTTATAACTGTGCTAG	0.352
TTAGATCTCAGTATCGGTTAGTGCTAG	5.01
TCATTCATGAAATTTTAAACTGTGCTA	0.243
GACAGTTTCCTACTGCTGACGTGCTAG	1.43
